Measured values of several laboratories.
Parts stem from different laboratories: compare values within a part only. “And” joins repeats or separate records; there may be more than shown.
Chain of UniProt Q15759 (whole entry, looked up): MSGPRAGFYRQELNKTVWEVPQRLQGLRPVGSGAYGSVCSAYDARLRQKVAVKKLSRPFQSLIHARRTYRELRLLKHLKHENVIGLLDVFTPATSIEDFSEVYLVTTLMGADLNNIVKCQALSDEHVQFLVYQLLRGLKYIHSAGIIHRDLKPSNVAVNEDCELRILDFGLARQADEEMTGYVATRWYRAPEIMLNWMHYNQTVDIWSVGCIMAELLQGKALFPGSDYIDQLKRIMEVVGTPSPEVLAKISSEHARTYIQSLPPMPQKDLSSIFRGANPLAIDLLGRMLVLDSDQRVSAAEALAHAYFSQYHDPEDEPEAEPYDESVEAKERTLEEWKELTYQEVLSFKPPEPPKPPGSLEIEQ
Chain of UniProt Q9UQB9 (whole entry, looked up): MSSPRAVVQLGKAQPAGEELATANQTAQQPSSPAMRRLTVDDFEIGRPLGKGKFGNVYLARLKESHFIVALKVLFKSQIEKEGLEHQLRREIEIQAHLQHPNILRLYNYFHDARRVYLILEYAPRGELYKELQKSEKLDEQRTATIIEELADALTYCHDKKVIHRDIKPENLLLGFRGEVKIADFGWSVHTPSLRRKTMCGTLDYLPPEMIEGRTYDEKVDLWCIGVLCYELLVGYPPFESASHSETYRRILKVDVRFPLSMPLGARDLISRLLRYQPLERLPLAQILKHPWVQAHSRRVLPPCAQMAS
Chain of UniProt Q02750 (whole entry, looked up): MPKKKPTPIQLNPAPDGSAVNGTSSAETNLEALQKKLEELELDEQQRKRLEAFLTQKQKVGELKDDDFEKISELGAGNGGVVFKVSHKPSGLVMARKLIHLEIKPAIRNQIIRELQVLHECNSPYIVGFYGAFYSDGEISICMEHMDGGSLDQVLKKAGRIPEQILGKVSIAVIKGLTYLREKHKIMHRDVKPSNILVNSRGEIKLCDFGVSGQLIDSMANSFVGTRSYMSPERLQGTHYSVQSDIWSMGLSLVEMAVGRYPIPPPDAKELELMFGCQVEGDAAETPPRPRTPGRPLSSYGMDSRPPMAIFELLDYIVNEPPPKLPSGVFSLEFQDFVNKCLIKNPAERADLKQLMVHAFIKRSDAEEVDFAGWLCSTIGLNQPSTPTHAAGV
Chain of UniProt P42681 (whole entry, looked up): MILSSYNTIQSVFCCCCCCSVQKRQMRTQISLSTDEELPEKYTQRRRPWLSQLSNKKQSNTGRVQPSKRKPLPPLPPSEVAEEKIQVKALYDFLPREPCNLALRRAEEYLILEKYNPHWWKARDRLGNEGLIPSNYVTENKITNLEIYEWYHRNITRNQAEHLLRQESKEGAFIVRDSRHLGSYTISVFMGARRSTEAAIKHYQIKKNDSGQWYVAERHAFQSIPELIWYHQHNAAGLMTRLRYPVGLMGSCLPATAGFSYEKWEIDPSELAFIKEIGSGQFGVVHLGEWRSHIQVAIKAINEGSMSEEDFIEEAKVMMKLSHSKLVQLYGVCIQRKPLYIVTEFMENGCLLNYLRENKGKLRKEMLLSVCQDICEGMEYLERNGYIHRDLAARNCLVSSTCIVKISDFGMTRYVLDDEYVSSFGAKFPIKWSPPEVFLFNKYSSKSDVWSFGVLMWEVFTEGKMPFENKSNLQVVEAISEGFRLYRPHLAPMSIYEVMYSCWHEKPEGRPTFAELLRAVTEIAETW
Chain of UniProt Q56UN5 (whole entry, looked up): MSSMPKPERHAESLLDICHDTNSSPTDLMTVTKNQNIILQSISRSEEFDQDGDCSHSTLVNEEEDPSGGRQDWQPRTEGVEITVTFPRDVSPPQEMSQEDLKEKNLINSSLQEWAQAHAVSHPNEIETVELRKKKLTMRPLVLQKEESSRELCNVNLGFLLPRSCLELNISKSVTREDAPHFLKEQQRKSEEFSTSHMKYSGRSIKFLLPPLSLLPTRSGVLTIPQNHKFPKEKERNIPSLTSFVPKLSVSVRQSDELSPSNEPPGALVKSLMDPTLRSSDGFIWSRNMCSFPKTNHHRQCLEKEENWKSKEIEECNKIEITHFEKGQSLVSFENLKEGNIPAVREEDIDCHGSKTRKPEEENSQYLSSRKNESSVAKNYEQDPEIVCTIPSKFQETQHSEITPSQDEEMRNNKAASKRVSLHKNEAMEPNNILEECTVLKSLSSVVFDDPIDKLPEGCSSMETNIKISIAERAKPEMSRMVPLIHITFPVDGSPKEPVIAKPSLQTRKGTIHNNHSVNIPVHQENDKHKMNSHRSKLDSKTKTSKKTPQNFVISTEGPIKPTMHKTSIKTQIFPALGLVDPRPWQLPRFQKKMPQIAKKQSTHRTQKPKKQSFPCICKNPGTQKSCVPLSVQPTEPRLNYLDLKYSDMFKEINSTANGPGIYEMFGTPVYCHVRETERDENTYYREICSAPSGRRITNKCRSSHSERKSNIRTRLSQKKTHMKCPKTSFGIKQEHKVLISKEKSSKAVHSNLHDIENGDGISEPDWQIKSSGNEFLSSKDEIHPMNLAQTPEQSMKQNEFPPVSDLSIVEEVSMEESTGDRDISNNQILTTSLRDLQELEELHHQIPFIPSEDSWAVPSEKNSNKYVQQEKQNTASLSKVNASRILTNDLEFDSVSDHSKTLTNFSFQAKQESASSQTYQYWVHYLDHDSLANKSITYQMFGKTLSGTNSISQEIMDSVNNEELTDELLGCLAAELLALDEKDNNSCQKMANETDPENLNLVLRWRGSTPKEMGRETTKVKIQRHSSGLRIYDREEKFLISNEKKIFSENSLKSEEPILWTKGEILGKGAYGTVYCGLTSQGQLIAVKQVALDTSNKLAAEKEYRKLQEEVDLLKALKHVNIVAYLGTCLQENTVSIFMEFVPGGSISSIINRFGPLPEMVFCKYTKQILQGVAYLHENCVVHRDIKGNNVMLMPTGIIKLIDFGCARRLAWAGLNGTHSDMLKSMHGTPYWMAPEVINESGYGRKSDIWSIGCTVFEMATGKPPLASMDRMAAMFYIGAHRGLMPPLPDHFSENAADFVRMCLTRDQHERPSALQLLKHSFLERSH

Series 1
Target: Calcium/calmodulin-dependent protein kinase type II subunit alpha (CAMK2A, Homo sapiens, UniProt Q9UQM7)
Chain of UniProt Q9UQM7 (whole entry, looked up): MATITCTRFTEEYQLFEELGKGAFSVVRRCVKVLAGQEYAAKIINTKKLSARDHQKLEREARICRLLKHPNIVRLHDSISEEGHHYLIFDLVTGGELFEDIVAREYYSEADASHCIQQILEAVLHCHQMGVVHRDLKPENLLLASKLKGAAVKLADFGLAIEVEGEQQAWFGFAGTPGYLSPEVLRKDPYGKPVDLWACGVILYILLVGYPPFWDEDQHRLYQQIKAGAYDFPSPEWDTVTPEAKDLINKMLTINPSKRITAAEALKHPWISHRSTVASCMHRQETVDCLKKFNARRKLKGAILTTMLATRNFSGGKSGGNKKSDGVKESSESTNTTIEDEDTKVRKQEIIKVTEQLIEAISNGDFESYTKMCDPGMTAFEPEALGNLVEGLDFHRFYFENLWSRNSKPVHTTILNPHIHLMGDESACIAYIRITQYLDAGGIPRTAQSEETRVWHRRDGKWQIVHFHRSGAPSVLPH
Effect on: enzyme activity
Mode: inhibitor
Concentration: 10 µM
SMILES | inhibition
C[C@H]1NCc2cc(-c3ccc4c(=O)c(C(=O)O)cn(C5CC5)c4c3OC(F)F)ccc21 | -9%
O[C@]12CO[C@H](c3ccc4c(c3)OCO4)[C@H]1CO[C@@H]2c1ccc2c(c1)OCO2 | -10%
C[C@H](CCC(=O)O)[C@H]1CC[C@H]2[C@@H]3C(=O)C[C@@H]4C[C@H](O)CC[C@]4(C)[C@H]3CC[C@]12C | 1%
CN(C/C=C/C#CC(C)(C)C)Cc1cccc2ccccc12 | -6%
CC(=O)O[C@H]1Cc2c(cc3oc(C)cc(=O)c3c2O)OC1(C)C | -26%
COC(=O)C1=CC[C@@]23CC[C@@H]([C@@](C)(/C=C/C=C(\C)C(=O)O)OC2=O)[C@@]3(OC(C)=O)CC1 | 6%
NC(N)=O | -7%
Cc1ccc(Nc2c(F)cccc2Cl)c(CC(=O)O)c1 | -2%
COc1cc([C@H]2OC[C@H]3[C@@H]2CO[C@@H]3c2ccc(O[C@@H]3O[C@H](CO)[C@@H](O)[C@H](O)[C@H]3O)c(OC)c2)ccc1O[C@@H]1O[C@H](CO)[C@@H](O)[C@H](O)[C@H]1O | -22%
O=C1CCCCO1 | 4%
C=C1C(=O)O[C@@H]2/C=C(\C)[C@@H](OC(C)=O)C/C=C(\COC(C)=O)C[C@@H](OC(=O)/C(C)=C/CO)[C@@H]12 | -0.09% and -0.27%

Series 2
Target: MAP/microtubule affinity-regulating kinase 3 (MARK3, Homo sapiens, UniProt P27448)
Chain of UniProt P27448 (whole entry, looked up): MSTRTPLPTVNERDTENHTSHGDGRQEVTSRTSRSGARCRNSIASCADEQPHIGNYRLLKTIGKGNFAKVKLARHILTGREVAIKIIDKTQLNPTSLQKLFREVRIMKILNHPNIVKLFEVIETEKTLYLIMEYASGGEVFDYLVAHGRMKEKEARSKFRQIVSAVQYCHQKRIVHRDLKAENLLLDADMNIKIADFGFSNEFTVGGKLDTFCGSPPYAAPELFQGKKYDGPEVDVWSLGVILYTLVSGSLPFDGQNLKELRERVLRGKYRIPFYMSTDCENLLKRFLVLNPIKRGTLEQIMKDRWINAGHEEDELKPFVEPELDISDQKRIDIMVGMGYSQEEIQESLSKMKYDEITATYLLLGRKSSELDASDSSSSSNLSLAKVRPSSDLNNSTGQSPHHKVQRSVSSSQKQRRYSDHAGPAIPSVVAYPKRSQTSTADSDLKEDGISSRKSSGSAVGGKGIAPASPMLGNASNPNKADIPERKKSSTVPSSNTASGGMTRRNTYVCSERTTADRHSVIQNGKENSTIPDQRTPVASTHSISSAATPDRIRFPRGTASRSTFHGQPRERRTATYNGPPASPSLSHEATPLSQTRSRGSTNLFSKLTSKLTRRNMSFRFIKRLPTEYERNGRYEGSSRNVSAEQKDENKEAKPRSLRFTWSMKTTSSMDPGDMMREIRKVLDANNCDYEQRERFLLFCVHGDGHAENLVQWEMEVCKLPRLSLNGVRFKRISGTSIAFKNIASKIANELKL
Effect on: enzyme activity
Mode: inhibitor
Concentration: 0.5 µM
Reference: control
Compound | remaining activity
COc1cc2ncnc(Nc3cccc(Cl)c3)c2cc1OC | 89.8%
N#Cc1c(NC(=O)c2cccc3ccccc23)sc2c1CCCC2 | 97.1%
COc1cc2c(cc1OC)-c1[nH]nc(Nc3cccc(F)c3)c1C2 | 69.9%
Ic1cccc(CSc2nnc(-c3ccncc3)o2)c1 | 124%
c1ccc(-c2[nH]ncc2-c2ccnc3ccccc23)nc1 | 87.5%
N#C/C(=C\c1ccc(O)c(O)c1)C(=O)NCc1ccccc1 | 97.5%
c1ccc(-c2cnc(Nc3ccc(OCCN4CCCC4)cc3)s2)cc1 | 93.1%
C[C@@H]1CCN(C(=O)CC#N)C[C@@H]1N(C)c1ncnc2[nH]ccc12 | 78.6%
CCN(CC)CCNC(=O)c1c(C)[nH]c(/C=C2\C(=O)Nc3ccc(Cl)cc32)c1C | 7.86%
Cc1cn(-c2cc(NC(=O)c3ccc(C)c(Nc4nccc(-c5cccnc5)n4)c3)cc(C(F)(F)F)c2)cn1 | 93.8%
Cc1cc2ncc(-c3ccccc3)nc2cc1C | 101%
Nc1cccc(-c2cc3c(Oc4cccc(O)c4)ncnc3[nH]2)c1 | 77.5%
O=C(Nc1cccc(Nc2nccc(Nc3cccc(C(F)(F)F)c3)n2)c1)C1CC1 | 102%
CCN(CC)C(=O)c1ccc(Nc2nc(OCC3CCCCC3)c3[nH]cnc3n2)cc1 | 85.4%
CCOc1nc(NC(=O)Cc2cc(OC)ccc2OC)cc(N)c1C#N | 94.8%
CN(C)C[C@H]1CCn2c(c(C3=C(c4cn(C)c5ccccc45)C(=O)NC3=O)c3ccccc32)C1 | 92.3%
CN([C@@H](Cc1ccc(OS(=O)(=O)c2cccc3cnccc23)cc1)C(=O)N1CCN(c2ccccc2)CC1)S(=O)(=O)c1cccc2cnccc12 | 93.7%
O=C1c2ccccc2-c2n[nH]c3cccc1c23 | 72.2%
Cn1nc2c3c(cccc31)C(=O)c1ccccc1-2 | 96.6%
COc1cc2ncnc(Nc3ccc(O)c(Br)c3)c2cc1OC | 98.8%
O=C1C(Cl)=C(N2C(=O)CCC2=O)C(=O)c2ccccc21 | 87.8%
O=C(NC(NC(=S)Nc1ccc(F)c([N+](=O)[O-])c1)C(Cl)(Cl)Cl)C(c1ccccc1)c1ccccc1 (stereo not shown) | 104%
Cc1nc2cc3nc(-c4cccs4)cnc3cc2n1C | 105%
O=c1cc(-c2cccc3c2Sc2ccccc2S3)oc(N2CCOCC2)c1 | 106%

Series 3
Cell line: mouse MPNST tumor cells
Technique: high-content nuclear imaging
Item: cell number
Concentration: 10 µM
Time: 12 h
Notes: mean of 2 replicates
Reference: plate mean
Reading: higher = more cells
Compound | nuclei count
Clc1ccc(CCCOCCCN2CCCCC2)cc1 | 3.17 z-score
O=C(NC[C@H](O)CN1CCc2ccccc2C1)c1ccnc(NC2CCC2)c1 | 4.73 z-score and 4.01 z-score
C[C@H](c1ccc(F)cc1CCCC(=O)O)N(c1cc(F)ccc1F)S(=O)(=O)c1ccc(Cl)cc1 | 1.08 z-score
CCCC(=O)C1CCN(c2ncnc3c2CN(C(=O)c2ccc(-c4ccccc4)cc2)CC3)CC1 | 1.82 z-score
CCCCC1C(=O)N(c2ccccc2)N(c2ccccc2)C1=O | 0.327 z-score and 0.375 z-score
OC[C@H]1O[C@@H](n2cnc3c2N=CNC[C@H]3O)C[C@@H]1O | 1.14 z-score
CCN1CCCC(OC(=O)C(c2ccccc2)c2ccccc2)C1 (stereo not shown) | 1.69 z-score
O=[N+]([O-])c1cccc2cn[nH]c12 | -0.962 z-score
O=C(O)C[C@H](O)C[C@H](O)/C=C/c1c(C2CC2)nc2ccccc2c1-c1ccc(F)cc1 | -4.46 z-score
CCCCc1oc2ccc(NS(C)(=O)=O)cc2c1C(=O)c1ccc(OCCCN(CCCC)CCCC)cc1 | -5.92 z-score
COc1cc2ncnc(Nc3ccc(F)c(Cl)c3)c2cc1NC(=O)/C=C/CN1CCCCC1 | -6.34 z-score
CN1CCN(CCCN2c3ccccc3Sc3ccc(C(F)(F)F)cc32)CC1 | -5.83 z-score
CN[C@@H]1[C@H](O)[C@H](NC)[C@H]2O[C@@]3(O)C(=O)C[C@@H](C)O[C@H]3O[C@@H]2[C@H]1O | 0.753 z-score

Series 4
Structure (SMILES): O=C(O)c1cc(-c2ccc(C3CCNCC3)cc2)c2ccc(-c3ccc(C(F)(F)F)cc3)cc2c1
Technique: competition with immobilised ligand
Concentration: 1 µM
target | effect on | remaining binding
Ribosomal protein S6 kinase alpha-4, N-terminal kinase domain (RPS6KA4, Homo sapiens, UniProt O75676) | cell-free assay | 100%
Tyrosine-protein kinase ABL1, non-phosphorylated (ABL1, Homo sapiens, UniProt P00519, F317L) | cell-free assay | 100%
Maternal embryonic leucine zipper kinase (MELK, Homo sapiens, UniProt Q14680) | cell-free assay | 98%
Ribosomal protein S6 kinase alpha-2, N-terminal kinase domain (RPS6KA2, Homo sapiens, UniProt Q15349) | cell-free assay | 100%
Hepatocyte growth factor receptor (MET, Homo sapiens, UniProt P08581, M1250T) | cell-free assay | 86%
Dual specificity mitogen-activated protein kinase kinase 1 (MAP2K1, Homo sapiens, UniProt Q02750) | cell-free assay | 100%
Epidermal growth factor receptor (EGFR, Homo sapiens, UniProt P00533, L858R) | cell-free assay | 100%
Dual specificity tyrosine-phosphorylation-regulated kinase 1B (DYRK1B, Homo sapiens, UniProt Q9Y463) | cell-free assay | 88%
Epidermal growth factor receptor (EGFR, Homo sapiens, UniProt P00533, T790M) | cell-free assay | 96%
Receptor-type tyrosine-protein kinase FLT3 (FLT3, Homo sapiens, UniProt P36888, D835V/ITD) | cell-free assay | 100%
Receptor-type tyrosine-protein kinase FLT3, autoinhibited (FLT3, Homo sapiens, UniProt P36888) | cell-free assay | 100%
Mitogen-activated protein kinase kinase kinase 19 (MAP3K19, Homo sapiens, UniProt Q56UN5) | cell-free assay | 100%
Tyrosine-protein kinase HCK (HCK, Homo sapiens, UniProt P08631) | cell-free assay | 100%
Dual specificity protein kinase TTK (TTK, Homo sapiens, UniProt P33981) | cell-free assay | 100%
LIM domain kinase 2 (LIMK2, Homo sapiens, UniProt P53671) | cell-free assay | 100%
Casein kinase I isoform delta (CSNK1D, Homo sapiens, UniProt P48730) | cell-free assay | 100%
Serine/threonine-protein kinase PLK1 (PLK1, Homo sapiens, UniProt P53350) | cell-free assay | 88%
Aurora kinase C (AURKC, Homo sapiens, UniProt Q9UQB9) | cell-free assay | 95%
Activin receptor type-1B (ACVR1B, Homo sapiens, UniProt P36896) | cell-free assay | 100%
Mitogen-activated protein kinase kinase kinase 4 (MAP3K4, Homo sapiens, UniProt Q9Y6R4) | cell-free assay | 100%
Mitogen-activated protein kinase 11 (MAPK11, Homo sapiens, UniProt Q15759) | cell-free assay | 100%
Wee1-like protein kinase (WEE1, Homo sapiens, UniProt P30291) | cell-free assay | 98%
Serine/threonine-protein kinase 32C (STK32C, Homo sapiens, UniProt Q86UX6) | cell-free assay | 100%
Ephrin type-A receptor 7 (EPHA7, Homo sapiens, UniProt Q15375) | cell-free assay | 100%
Tyrosine-protein kinase TXK (TXK, Homo sapiens, UniProt P42681) | binding | 100%

A few entries again (series 1):
SMILES | inhibition
C[C@H]1NCc2cc(-c3ccc4c(=O)c(C(=O)O)cn(C5CC5)c4c3OC(F)F)ccc21 | -9%
COc1cc([C@H]2OC[C@H]3[C@@H]2CO[C@@H]3c2ccc(O[C@@H]3O[C@H](CO)[C@@H](O)[C@H](O)[C@H]3O)c(OC)c2)ccc1O[C@@H]1O[C@H](CO)[C@@H](O)[C@H](O)[C@H]1O | -22%
O=C1CCCCO1 | 4%
C[C@H](CCC(=O)O)[C@H]1CC[C@H]2[C@@H]3C(=O)C[C@@H]4C[C@H](O)CC[C@]4(C)[C@H]3CC[C@]12C | 1%
O[C@]12CO[C@H](c3ccc4c(c3)OCO4)[C@H]1CO[C@@H]2c1ccc2c(c1)OCO2 | -10%
Cc1ccc(Nc2c(F)cccc2Cl)c(CC(=O)O)c1 | -2%
CN(C/C=C/C#CC(C)(C)C)Cc1cccc2ccccc12 | -6%
CC(=O)O[C@H]1Cc2c(cc3oc(C)cc(=O)c3c2O)OC1(C)C | -26%
NC(N)=O | -7%
COC(=O)C1=CC[C@@]23CC[C@@H]([C@@](C)(/C=C/C=C(\C)C(=O)O)OC2=O)[C@@]3(OC(C)=O)CC1 | 6%
C=C1C(=O)O[C@@H]2/C=C(\C)[C@@H](OC(C)=O)C/C=C(\COC(C)=O)C[C@@H](OC(=O)/C(C)=C/CO)[C@@H]12 | -0.09% and -0.27%
